Experimental data of several laboratories.

SMILES | test | test system | conditions | measurement | result
CC(=O)c1c(C)c2cnc(Nc3ccc(C4CCN(CCS(C)(=O)=O)CC4)cn3)nc2n(C2CCCC2)c1=O |  | HR+/HER2- advanced breast cancer patients | oral, 200 mg | patients with TEAE grade ≥3 | 66.7%
C=CC(=O)N1CC[C@H](n2nc(C#Cc3cc(OC)cc(OC)c3)c3c(N)ncnc32)C1 | item: blood creatinine increased | hyperphosphataemia patients | oral, once daily, any grade, phosphate binder users | patients with ADR | 12.5%
COc1cc2c(Oc3ccc4[nH]c(C)cc4c3F)ccnc2cc1OCC1(N)CC1 |  | paediatric refractory sarcoma patients | dose not given | patients with grade 3 Cholesterol elevation | 0%
N[C@@H]1c2ccccc2OC12CCN(c1cnc3c(N4CCCc5ncccc54)n[nH]c3n1)CC2 |  | advanced solid tumour patients | oral, 150 mg once daily | patients with grade ≥3 TEAE | 75%
CN1CC[C@@H](c2c(O)cc(O)c3c(=O)cc(-c4ccc(C(F)(F)F)cc4Cl)oc23)[C@@H]1CO | item: respiratory failure | AML | oral, 200 mg, grade 3 to 4, intermittent dosing | patients with adverse event | 0%
COc1nnc2ccc(N3CCC(c4ccc(OCCN5CCN(C)C(=O)[C@H]5C)cc4)CC3)nn12 | item: diarrhea | patients with solid tumours or lymphoma | oral, dose not given, all grades, treatment-emergent | patients with adverse event | 32.4%
C=CCNc1c(O)cc2c(O)c1C[C@@H](C)C[C@H](OC)[C@H](O)[C@@H](C)/C=C(\C)[C@H](OC(N)=O)[C@@H](OC)/C=C\C=C(/C)C(=O)N2 |  | unresectable or metastatic STS, GIST, other | intravenous, 90 mg/m^2 | patients with headache TEAE | 0%
O=C1Nc2cc3[nH]nc(-c4ccncc4)c3cc2CN1Cc1ccccc1 | CTCAE v4.03 | advanced solid tumour patients | intravenous, 3.6 mg/kg, schedules 1/2 | patients with fatigue | 67%
